Published values of several laboratories.
Numbered parts are unrelated; each lists some results of a single study. Substitutions count along the parent as printed.

Series 1
Target: Probable WRKY transcription factor 33, N-terminal DNA-binding domain (WRKY33, Arabidopsis thaliana, UniProt Q8S8P5, residues 169-264)
Method: DNA-protein interaction ELISA
Molecule type: double-stranded DNA, one strand shown
Matrix: in vitro, bacterial lysate
Concentration: not given
Notes: whole dsDNA probe, crude lysate protein
Reference: highest signal in screen
Reading: higher = stronger binding
Construct (chain): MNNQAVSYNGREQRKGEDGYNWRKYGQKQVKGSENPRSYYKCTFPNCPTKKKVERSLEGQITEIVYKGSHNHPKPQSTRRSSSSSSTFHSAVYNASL
Strand	relative absorbance
AAAAAAAAGCGTTACATCATATGGAAAAAA	24.9 % of maximum
AAAAAAACTCTCCGGGTACAATTGCAAAAA	17.3 % of maximum
AAAAAAACGGTGTCATAGTATTAGTGAAAA	19.2 % of maximum
AAAAAATTTCTATTTCATCTTTGCCCAAAA	63.6 % of maximum
AAAAAAGTACATGCGTAGATAATGTTAAAA	23.2 % of maximum
AAAAAATCGCGTCCGTGCTCAATCCAAAAA	21.6 % of maximum
AAAAAATACGTCTACGTGGTTGTCGTAAAA	20.1 % of maximum
AAAAAAGGTGAGGAAGTTGGGTATGGAAAA	21 % of maximum
AAAAAACATTGATAAAATCTCCAGGCAAAA	20.4 % of maximum
AAAAAATCGGGGATCCGGGCGGTTGCAAAA	22.1 % of maximum

Series 2
Target: CCNA1, cyclin fold, Cln2 fusion (human)
Method: yeast growth competition, sequencing
Matrix: yeast
Notes: weak parent motif
Reference: not given
Reading: higher = stronger binding
Parent: EXO1 docking peptide (human); KPECGRVQRAIFQ; partner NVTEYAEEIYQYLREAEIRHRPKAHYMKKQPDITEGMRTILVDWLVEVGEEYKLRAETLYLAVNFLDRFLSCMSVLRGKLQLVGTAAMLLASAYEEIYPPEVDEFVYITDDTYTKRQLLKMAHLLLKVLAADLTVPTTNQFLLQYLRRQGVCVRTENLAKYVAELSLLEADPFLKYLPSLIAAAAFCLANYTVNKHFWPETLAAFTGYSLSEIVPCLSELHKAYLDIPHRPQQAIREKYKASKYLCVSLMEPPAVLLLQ
Substitution	normalised enrichment score
KPEAGRVQRAIFQ [C4A]	-0.14
KAECGRVQRAIFQ [P2A]	0.341
KPECGRVARAIFQ [Q8A]	-0.00593
KPECGRVQRAAFQ [I11A]	-0.0683
KPECGRVQAAIFQ [R9A]	-0.0655
KPACGRVQRAIFQ [E3A]	-0.0845

Series 3
Target: RING finger protein unkempt homolog, zinc fingers 1-6, GST-SBP tag (UNK, Homo sapiens, UniProt Q9C0B0, residues 30-357)
UniProt Q9C0B0, sequence (30-357, looked up): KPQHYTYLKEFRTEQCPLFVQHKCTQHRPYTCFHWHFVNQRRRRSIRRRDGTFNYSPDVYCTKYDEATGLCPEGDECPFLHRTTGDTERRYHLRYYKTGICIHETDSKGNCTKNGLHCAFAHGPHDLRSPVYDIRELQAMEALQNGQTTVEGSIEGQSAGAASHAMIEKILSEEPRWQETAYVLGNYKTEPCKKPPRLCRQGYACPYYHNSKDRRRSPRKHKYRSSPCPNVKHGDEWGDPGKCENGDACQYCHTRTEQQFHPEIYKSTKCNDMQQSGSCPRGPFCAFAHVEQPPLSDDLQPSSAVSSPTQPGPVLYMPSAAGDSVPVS
Method: RNA Bind-n-Seq
Molecule type: RNA
Matrix: in vitro
Concentration: not given
Notes: RNA with constant flanks, ends assumed
Reference: input RNA pool
Reading: higher = stronger binding
Constant ends, left off below: GGGAGUUCUACAGUCCGACGAUC … CAACAGAGGAUUGAGCAUCA
Strand	bound/input enrichment [ratio]
UGUGGCUUUGGUGGGGUCUUAAGUUGUGGUCUGACACACACUGCUGUGGUUCCCCUGGAUUCCGUGAAAUGCCGUAUGCAGGUGGACCCCCAAAAGUACAAGGGCAUAUUUAACGGAUUC	0.163
GUUCUCAGUAGUCCGAACUCUAAUAUGAGCAGCAUGGUAGUUACAGCCAAUGGUAAUGACCGUAAAAAAUUUAAAGGAGAAGAUAAAAUGGAUGGUGCUCCUUCUCGUGUACUUCAUAUU	0.959
UUUCUCAAAUCCCUAAAUUUCUGAUUUCCAUUCAAGUCUUUUAAACUCUUUCCUGCUGAACCGCAAAGAACUUUUAUUUUCCACUUUCCUAUAUUCCUAAAAAGUGUGAACAAUGCGUUU	0.399
ACAACUCUGGAUAGAGCUGCGUGUUUGCCACCUGGAGACCAUAAUGCAUUAUAUGUAAACCGCUUCCCACUUCUGGACCCAUCUGAUGCACCUUUUCCCUCACUCGAUUCCCCGGGAAAA	0.157
GUACCUAGAAAUGCUGAACACUACAAGCAAAGACAUUCACACGGGCAUUAUGGCUGUGAAUACCGGAAGGAUCCAAAAAGACCCGUCGCGUGGAGAAUGGACAGUGAGAAACAUGGACAG	0.271
UUUACUUUUUUUGUGUGUUAAUGGUGUGUGCUCCCUCUCCCUCUCUUCCCUUUCCUGACCUUCCGUCUUUCACUUCCAAUUUUGUGGAAUGAUAUUUUAGGAAUAACGGACUUUUAAAGA	0.856
AGCACAUGGUUUGGGACUUGCACGUUCUGCCAUGGAGGAGUCUUCAGUGACAGUUGGCACAACCGACGUUUCUUAUCUGCCCAGUUCAUCGGAAUACAGCCUUGGCCGAUGUAAACACAC	0.26
CCAGGACACUGCCUUAUGUUUGAUCAUCGGCCAAGGUCCUGGCGAGAACUGCCUCUGCGGCCCGCUGAUUUUGGGGUACUUCAUAGGAACGAGCUGUCUGGAGCACUCACAGGACUCACC	0.124
GCUGGAUAUGGAGACAUUUACCUCAAUGCUGGUCCCAUGUUGUUUAGUGGAGACAAGGACCACCGAUUUGAAUAUAGCCAUGGUCCUAUUGCAGUCCUGGCAAACAGCAGUGACCCUUCC	0.126
AUAAAGACCGAGCAGUACAAAACAGGUCACCACUCGCCUCGAGGACAAACGUUGGACCGCACCGACCCUGUGGCCAGGGGUCCCAGCCCCCUGAGUUCUCACAUCAGCCCCGGCAGCUCC	0.107

Series 4
Target: RNA binding protein fox-1 homolog 2, RRM domain, GST-SBP tag (RBFOX2, Homo sapiens, UniProt O43251-10, residues 100-194)
Method: RNA Bind-n-Seq
Molecule type: RNA
Matrix: in vitro
Concentration: 365 nM
Notes: natural RNA segment, single round, ends assumed
Reference: no-protein control
Reading: higher = stronger binding
Constant ends, left off below: GGGAGUUCUACAGUCCGACGAUC … UGGAAUUCUCGGGUGCCAA
Strand	RBNS enrichment (R)
CAGAGAACAAUCACUAUUCUUAAGCACUUUGAAGAUAUUUCUAUGUAAAUUAUUGUAAACUUUUUCAAUGGUUGGGACAAUGGCAAUAGGAUAAAACGGGUUACUAAGAU	0.375
AUGUCCAAAGUGGAACUCUCCAUCUACCUCCCUCACAUGAACCUGUUCCUCUCUCAGGAUCUGUAUGUAAGUGAAAAGCAUCACCAUCUACCCAUUGGCUCAAGCAGAAA	0.556
UUAAAGAAAAGGUUUUUAGGUAUUUUUGGUAUUAUAUAGUCUCUAAGGCCAGAAGGGGCUUAUAAUGACUUCUCUUCUAGAAUUGUAAUACUAAAAAACUACUCGAGUAA	0.648
CUGCUAUAGUGUGAAAAUCAGGGCUAAAAACCUGAAGCCUUUGUUUAAUUAUGCUUUUCCUCUAAAUAGCAACUUAAAUAUUUGCUAGACUUUGAAUCAUCGCUAUAUCA	0.759
UUACCGGUGAGACUGGGCUUGGACUGUACAAGACUUGAGUCCUAGACCUGGGUGUAUUUGCACUUUGGGGCCCUGUUGCUAGCCAUCUUGUGAGUGCCAAUGUAUAAUGC	1.01
UGAGAUUUGGGUGGGGACAUAGCCAAACCAUAUCAUUCUACCCCUGGCCCCUCCAAAUCUCAUGUCCUCACUAUUCAAAACCAAUCAUGCCUUCCUAACAGUCCCCCAAA	1.01
GCUGGAUUUUGGUUCCCUUGUAAAGACAGAGUGAAUUUCAGUAUAAAGAUCACCCGUUGUAUUCACCCCACACCCAGGGCUAGUAUAAACAUGACCCUGGGCUUCUGUAC	0.467
UGAGGGCCACCAAUGGAAGAGCCCGCCCUUCAUUCUGCAGCUCCUGCGGCCAGGCUGAGCUCUGCCCCCAACUUUGUUUUCUCUCAUGUUCUCAAUACACUCUGCCUCAA	0.697
GUGCCUUUUGCCUUCCACCAUGAUUGUGAGGCCUCCCAGCCACAUGGAACUGUGAGUUCAUUAAACCUCUUUUUCUUCAUAAAUUACCCAGUCUCGGGUAUGUCUUUAUC	0.42
GUUUUUGGGGUCCAUGGCCAAGUGGAGUUCCCCCAGAGGGGGAGGUGGGGUAAGUGCCUCCAGGAAGGCAGGCAGCCUGCCUUAGACUUGCAGCCCGGCUGUGGGAAUGA	0.83
GGCCUCCCCACUCUGGUGUCUAUGACUGGCUCCUCAUACCACUGUUUUCCUGACUUCCAGCCUUGCCUGACUCACCGGGAUCCUUAUGUUUGGGCCUUCCCCAUCCUAUU	0.574
AUAUUCUUUUUUAAAUGCGGAUUUUCAAAACAUAUUUCCUUUCCAGUGUCCCUUUUGUGUCUGGCUUGCUGAGUAUAGAAGCUGUCACCUGGACGAUUCUGCUCCUCAGC	0.751

Series 5
Target: Interferon regulatory factor 3, full length, phosphomimetic (IRF3, Homo sapiens, UniProt Q14653, residues 1-427, S386D/S396D/S398D/S402D/T404D/S405D)
Method: protein-binding microarray
Molecule type: double-stranded DNA, one strand shown
Matrix: in vitro
Concentration: 2540 nM top
Notes: 60-bp whole probe
With: salmon DNA 0.4 mg/ml
Reference: random background probes
Reading: higher = stronger binding
Constant ends, left off below: GCCTAGCAC … GTCTTGATTCGCTTGACGCTGCTG
Target sequence (chain): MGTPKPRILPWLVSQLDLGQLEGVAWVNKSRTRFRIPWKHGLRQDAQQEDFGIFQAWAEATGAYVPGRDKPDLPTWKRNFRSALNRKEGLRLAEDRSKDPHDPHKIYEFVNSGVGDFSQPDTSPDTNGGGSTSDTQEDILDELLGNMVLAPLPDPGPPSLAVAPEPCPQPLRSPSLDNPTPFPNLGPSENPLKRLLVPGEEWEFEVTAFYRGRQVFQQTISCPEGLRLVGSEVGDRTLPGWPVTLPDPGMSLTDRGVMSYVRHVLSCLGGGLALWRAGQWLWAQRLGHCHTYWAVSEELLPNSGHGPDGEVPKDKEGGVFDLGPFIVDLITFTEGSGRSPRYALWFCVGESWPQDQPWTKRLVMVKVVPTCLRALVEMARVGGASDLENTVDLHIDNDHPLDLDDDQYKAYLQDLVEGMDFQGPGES
Strand	fitted relative affinity [z-score]
TTAGGTTTCGACTTCCGGTTAGTGCTA	3.35
TCTGGTTCCCATTCCAGGGTGTGCTAG	3.72
TCAATATTCATTTTATTACTGTGCTAG	1.51
CCCTGAGTCCCTTGGGCCTTGTGCTAG	-0.989
TTACGTCTCCTTATCCTTTAGTGCTAG	2.37
GACGAACTGCGTATCGAGACGTGCTAG	0.0315
GACGCTATCGACACTGGGGACGTGCTA	-0.294
TACGGACTGGACTTTCGGGACGTGCTA	0.0839
GAAGATTTCGATTACAAAAAGTGCTAG	2.73
GACGATATCAGTCTCGAGAAGTGCTAG	1.06
TTAGAATTGGGGACTGGATTAGTGCTA	-0.629
TCAGTTTCCTTCCTCTTACTGTGCTAG	8.78
TTAGGTCTCGGACTGGGTTGGTGCTAG	-0.481
GACGGTATCGGGTTCGGGACGTGCTAG	2.41
GACGATCTAAGTTTCGAGACGTGCTAG	1.82
TTAGAAGTGAGTATCGATTAGTGCTAG	-0.0423
TTAGGACCGCTTATCCTTTAGTGCTAG	0.314
TTAGGACTGCTTATCCTATAGTGCTAG	-0.0411

Excerpt of the above (series 1):
Strand	relative absorbance
AAAAAATACGTCTACGTGGTTGTCGTAAAA	20.1 % of maximum
AAAAAATCGCGTCCGTGCTCAATCCAAAAA	21.6 % of maximum
AAAAAAACGGTGTCATAGTATTAGTGAAAA	19.2 % of maximum
AAAAAAAAGCGTTACATCATATGGAAAAAA	24.9 % of maximum
AAAAAAGTACATGCGTAGATAATGTTAAAA	23.2 % of maximum
AAAAAACATTGATAAAATCTCCAGGCAAAA	20.4 % of maximum
